Experimental data gathered from unrelated publications.
Each line is one published result; not all experiments were run side by side.
Cell line: MCF7
Observed: cell growth or viability

CCC(=C(c1ccc(O)cc1)c1ccc(Cl)cc1)c1ccc(OC)cc1
GI50 (SRB): 1050 nM

CC(=O)c1cccc(NC2C(N)C(NC(=O)N(C)C)(C(C)O)C(O)C2(O)COC(=O)c2c(C)cccc2O)c1 (stereo not drawn)
GI50 (SRB): 51 nM

O=C1c2ccccc2C(=O)c2c1ccc1c2C(C(=O)Nc2ccccc2)C(=O)C1c1ccccc1 (stereo not drawn)
GI50: 11.6 µg/mL

CCCCCCCCCCCCCCCC(=O)N[C@H](Cc1ccc(O)cc1)C(=O)N[C@H](CC(C)C)C(=O)N[C@@H](C(=O)NCC(=O)N[C@H](CC(N)=O)C(=O)NCC(=O)N[C@H](CC(C)C)C(=O)N[C@H](CCCNC(=N)N)C(=O)N[C@H](CO)C(=O)N[C@H](CC(N)=O)C(=O)N[C@H](CC(N)=O)C(=O)N[C@H](CCCNC(=N)N)C(N)=O)C(C)C
GI50 (MTT; 48 h): 40 nM

COc1ccc(NC(=O)C2C(=O)C(c3ccccc3)c3ccc4c(c32)C(=O)c2ccccc2C4=O)cc1 (stereo not drawn)
GI50: 23 µg/mL

CC(C)C[C@@H](NC(=O)[C@H](C)NC(=O)CNC(=O)[C@@H](NC=O)C(C)C)C(=O)N[C@@H](C)C(=O)N[C@@H](C(=O)N[C@H](C(=O)N[C@@H](C(=O)N[C@@H](Cc1c[nH]c2ccccc12)C(=O)N[C@H](CC(C)C)C(=O)N[C@@H](Cc1c[nH]c2ccccc12)C(=O)N[C@H](CC(C)C)C(=O)N[C@@H](Cc1c[nH]c2ccccc12)C(=O)N[C@H](CC(C)C)C(=O)N[C@@H](Cc1c[nH]c2ccccc12)C(=O)NCCO)[C@H](C)O)C(C)C)C(C)C
GI50 (SRB; 48 h): 990 nM

CC(=O)N[C@@H](Cc1ccc(O)cc1)CN(CC(=O)N[C@@H](CCCCN)CN(CC(=O)N[C@@H](Cc1ccccc1)CN(CC(=O)N[C@H]1CCCCNc2c(F)c(F)c(c(F)c2F)S(=O)(=O)c2c(F)c(F)c(c(F)c2F)NCCCC[C@@H](CN(CC(=O)N[C@@H](C)CN(CC(N)=O)S(C)(=O)=O)S(C)(=O)=O)NC(=O)CN(S(=O)(=O)Cc2ccccc2)C[C@H](CC(C)C)NC(=O)CN(S(=O)(=O)CCN)C1)S(=O)(=O)CC(C)C)S(=O)(=O)CCN)S(C)(=O)=O
GI50 (CCK-8; 72 h): 7420 nM

CC(C)C1=C(O)C(=O)C2=C(C1=O)[C@H](O)[C@@H](O)[C@H]1C(C)(C)CCC[C@]21C
GI50 (SRB; 48 h): 26000 nM

CC(=C(c1ccc(O)cc1)c1ccc(Cl)cc1)c1ccc(Cl)cc1
GI50 (SRB): 820 nM

COc1cc([C@@H]2c3cc4c(cc3[C@@H](OCc3cc(-c5cc(C#N)cc(C#N)c5)no3)[C@H]3COC(=O)C23)OCO4)cc(OC)c1OC (stereo partly drawn)
GI50 (SRB; 48 h): 120 nM

CC(=O)N[C@@H](Cc1ccc(O)cc1)CN(CC(=O)N[C@@H](CCCCN)CN(CC(=O)N[C@@H](Cc1ccccc1)CN(CC(=O)N[C@H]1CCCCNc2c(F)c(F)c(c(F)c2F)S(=O)(=O)c2c(F)c(F)c(c(F)c2F)NCCCC[C@@H](CN(CC(=O)N[C@@H](C)CN(CC(N)=O)S(C)(=O)=O)S(C)(=O)=O)NC(=O)CN(S(=O)(=O)CC(C)C)C[C@H](Cc2ccccc2)NC(=O)CN(S(=O)(=O)CCN)C1)S(=O)(=O)c1ccc(Cl)cc1)S(=O)(=O)CCN)S(C)(=O)=O
GI50 (CCK-8; 72 h): 11000 nM

COc1cc([C@@H]2c3cc4c(cc3[C@@H](OCc3cc(-c5ccc(C)cc5)no3)[C@H]3COC(=O)C23)OCO4)cc(OC)c1OC (stereo partly drawn)
GI50 (SRB; 48 h): 3080 nM

O=C1c2ccccc2C(=O)c2c1ccc1c2C(C(=O)Nc2ccc(Br)cc2)C(=O)C1c1ccccc1 (stereo not drawn)
GI50: 35.8 µg/mL

COc1cc([C@@H]2c3cc4c(cc3[C@@H](OCc3cc(-c5cccc(C#N)c5)no3)[C@H]3COC(=O)C23)OCO4)cc(OC)c1OC (stereo partly drawn)
GI50 (SRB; 48 h): 2520 nM

Cc1ccc(NC(=O)C2C(=O)C(c3ccccc3)c3ccc4c(c32)C(=O)c2ccccc2C4=O)cc1 (stereo not drawn)
GI50: 45.9 µg/mL

Repeated from above:
COc1cc([C@@H]2c3cc4c(cc3[C@@H](OCc3cc(-c5cc(C#N)cc(C#N)c5)no3)[C@H]3COC(=O)C23)OCO4)cc(OC)c1OC (stereo partly drawn)
GI50 (SRB; 48 h): 120 nM

CC(=O)N[C@@H](Cc1ccc(O)cc1)CN(CC(=O)N[C@@H](CCCCN)CN(CC(=O)N[C@@H](Cc1ccccc1)CN(CC(=O)N[C@H]1CCCCNc2c(F)c(F)c(c(F)c2F)S(=O)(=O)c2c(F)c(F)c(c(F)c2F)NCCCC[C@@H](CN(CC(=O)N[C@@H](C)CN(CC(N)=O)S(C)(=O)=O)S(C)(=O)=O)NC(=O)CN(S(=O)(=O)CC(C)C)C[C@H](Cc2ccccc2)NC(=O)CN(S(=O)(=O)CCN)C1)S(=O)(=O)c1ccc(Cl)cc1)S(=O)(=O)CCN)S(C)(=O)=O
GI50 (CCK-8; 72 h): 11000 nM
